Measurements collected from several papers.
Values joined by “and” are separate records of one study, mostly repeats; a detail may differ.
CDC25B: M-phase inducer phosphatase 2 (CDC25B, Homo sapiens, UniProt P30305)

For `O=C(O)c1cc(S(=O)(=O)Nc2ccc(Br)cc2)ccc1Cl`, the inhibition was 3% (Ectonucleoside triphosphate diphosphohydrolase 1 (Homo sapiens, UniProt P49961); enzyme activity, inhibitor, absorbance; 100 µM).
The inhibition of `C[C@@H](N)C1CCN(S(=O)(=O)c2cccc3cnccc23)CC1` is reported as over 95% (Rho-associated protein kinase 1 (ROCK1, Homo sapiens, UniProt Q13464); cell-free assay, competition with immobilised ligand; 10 µM).
For `N#Cc1c(F)c(F)c2nc(SCC3CCCO3)nc(N)c2c1F` (centres unmarked), the inhibition was 99.9% (CDC25B; enzyme activity, inhibitor, fluorescence; 20 µg/mL).
The inhibition of `C[Si](C)(C)C[C@H](CN)CC(=O)O` is reported as 72% (Voltage-dependent calcium channel subunit alpha-2/delta-1 (Rattus norvegicus, UniProt P54290); [3H]gabapentin binding; rat cerebral cortex membranes; 6.25 µM, added: [3H]gabapentin 20 nM).
`CCNC(=O)Nc1ccc(OCCCCOc2ccc(NC(=O)NCC)cc2)cc1` gave an inhibition of 52% (Transcription antitermination protein NusB, with NusE (nusB, Bacillus subtilis, UniProt P54520); protein-protein interaction, inhibitor, competitive ELISA; 25 µM, 15 min preincubation, 37 °C, added: 200 nM GST-NusE).
For `C=CC(=O)N1C[C@H](C)N(c2nc(OC[C@@]34CCCN3C[C@H](F)C4)nc3c(F)c(-c4ccc(F)c5sc(N)c(C#N)c45)c(C(F)(F)F)cc23)C[C@H]1C`, the inhibition was 93% (Cyclin-dependent kinase 8 (CDK8, Homo sapiens, UniProt P49336); binding, KINOMEscan; 1 µM).
The inhibition of `COCCSc1nc(N)c2c(F)c(C#N)c(F)c(Cl)c2n1` is reported as 98.6% (CDC25B; enzyme activity, inhibitor, fluorescence; 20 µg/mL).
`Cc1ccc(Nc2nc(SCc3cn(CC(=O)NC(=O)Nc4ccccn4)nn3)nc(-c3ccc(C)cc3)c2C#N)cc1` has an inhibition of 94.8% (Lysine-specific histone demethylase 1A (KDM1A, Homo sapiens, UniProt O60341); enzyme activity, inhibitor, fluorescence; 1 µM).
`O=C(N/N=C/c1ncc[nH]1)c1cccs1` has an inhibition of 24% (1-deoxy-D-xylulose-5-phosphate synthase (dxs, Deinococcus radiodurans, UniProt Q9RUB5); enzyme activity, inhibitor; 120 µM).
`CCCCCCCCCCCCCCCC(=O)N[C@@H](CCCCN)C(=O)N[C@@H](CCCCN)C(=O)N[C@@H](CO)C(=O)N[C@@H](CCCNC(=N)N)C(=O)N[C@@H](C)C(=O)N[C@@H](CC(C)C)C(=O)N[C@@H](Cc1ccccc1)C(N)=O` — result for inhibition: “inhibited” (Proteinase-activated receptor 1 (F2R, Homo sapiens, UniProt P25116); platelet aggregation, antagonist; human gel-filtered platelets; concentration not given, added: SFLLRN 2.5 µM).
With `CC(=O)c1cnc(N)nc1N1CC[C@H]1c1nn2ccc(Cl)c2c(=O)n1-c1ccccc1` the inhibition was under 10% (Potassium voltage-gated channel subfamily KQT member 1, with KCNE1 (KCNQ1, Homo sapiens, UniProt P51787); ion current, inhibitor; 3 µM).
`COc1cc(C(=O)NC2CCC(N3CCN(CC4CCC5(CCCC5)C4)CC3)CC2)c(F)cc1Nc1ncc2c(n1)N(C1CCCC1(F)F)CC(F)(F)C(=O)N2C` (centres unmarked) has an inhibition of 0.91% (ALK tyrosine kinase receptor (ALK, Homo sapiens, UniProt Q9UM73); cell-free assay, TR-FRET; 10 µM).
`OC[C@H]1O[C@H](n2cc(COc3ccc(OCc4cn([C@H]5O[C@H](CO)[C@@H](O)[C@H](O)[C@H]5O)nn4)cc3)nn2)[C@H](O)[C@@H](O)[C@@H]1O` gave an inhibition of 87% and > 66% (Lysosomal alpha-glucosidase (GAA, Homo sapiens, UniProt P10253); enzyme activity, inhibitor, fluorescence; 1.43 mM, pH 4, lysate).
`CC(=O)Nc1cc(COc2c(Cl)cc(CC(N)C(=O)O)cc2Cl)c2oc(-c3ccccc3)nc2c1` (centres unmarked) — result for inhibition: “no inhibition” (Sodium-coupled neutral amino acid transporter 3 (SLC38A3, Homo sapiens, UniProt Q99624); glutamine uptake; Xenopus oocytes; 1 and 10 µM, 30 min, added: L-[14C]glutamine 50 µM).
The inhibition of `Oc1cc(O)c2c(c1)O[C@H](c1cc(O)c(O)c(O)c1)[C@@H](O)C2` (racemic) is reported as 93.8% (Sucrase-isomaltase, intestinal (Si, Rattus norvegicus, UniProt P23739); enzyme activity, inhibitor; rat intestinal brush border vesicles; 10 µM).
The inhibition of `O=C(NO)C1=CCCC1` is reported as under 10% (Histone deacetylase 8 (HDAC8, Homo sapiens, UniProt Q9BY41); enzyme activity, inhibitor; 100 µM).
The inhibition of `CCC(=O)N(C)c1ccc(Cl)c(Cl)c1` is reported as 20.7% (5-hydroxytryptamine receptor 1A (HTR1A, Homo sapiens, UniProt P08908); ligand displacement, radioligand; 10 µM).

A few entries again:
The inhibition of `C[Si](C)(C)C[C@H](CN)CC(=O)O` is reported as 72% (Voltage-dependent calcium channel subunit alpha-2/delta-1 (Rattus norvegicus, UniProt P54290); [3H]gabapentin binding; rat cerebral cortex membranes; 6.25 µM, added: [3H]gabapentin 20 nM).
With `CC(=O)c1cnc(N)nc1N1CC[C@H]1c1nn2ccc(Cl)c2c(=O)n1-c1ccccc1` the inhibition was under 10% (Potassium voltage-gated channel subfamily KQT member 1, with KCNE1 (KCNQ1, Homo sapiens, UniProt P51787); ion current, inhibitor; 3 µM).
